Experimental data of several laboratories.
Values joined by “and” are separate records of one study, mostly repeats; a detail may differ. ± marks the error that the study gave.
TOP2B: DNA topoisomerase 2-beta (TOP2B, Homo sapiens, UniProt Q02880)
Voltage-dependent P/Q-type calcium channel subunit alpha-1A: Voltage-dependent P/Q-type calcium channel subunit alpha-1A (Homo sapiens, UniProt O00555)
UCHL1: Ubiquitin carboxyl-terminal hydrolase isozyme L1 (UCHL1, Homo sapiens, UniProt P09936)
BEST1: BEST1 (Homo sapiens, UniProt O76090)
ADRA2C: Alpha-2C adrenergic receptor (ADRA2C, Homo sapiens, UniProt P18825)
T1: RNA aptamer A7C, 5'-triphosphate, 2',3'-cyclic phosphate; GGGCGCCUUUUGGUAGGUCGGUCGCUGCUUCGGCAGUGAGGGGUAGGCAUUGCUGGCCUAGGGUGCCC

Under “mean decatenated DNA”, `Cc1nc(CSc2nc(SCc3ccc(C(C)C)cc3)nc(=O)[nH]2)cs1` is recorded as 26.8% (TOP2B; decatenation; 31.25 µM).
With `Cc1ccc2c(c1)sc(-c1ccc(N(C)C)cc1)[n+]2C.[I-]` the inhibition was 40.1% (Trypanosoma cruzi; reporter translation, Renilla luciferase mRNA translation; cell-free extract; 40 µM; baseline: DMSO).
`N[C@@H](Cc1ccc(O)c(O)c1)C(=O)O` gave an inhibition of -6% (Voltage-dependent P/Q-type calcium channel subunit alpha-1A; ion current, antagonist; HEK293; 3 µM).
`O=C(O)c1ccc(Nc2ncc3c(n2)-c2ccc(Cl)cc2C(c2c(F)cccc2F)=NC3)cc1` gave a remaining activity of 67% (EphA7(h); kinase activity; 1 µM).
For `Oc1ccccc1-c1n[nH]cc1-c1ccnc2ccccc12`, “log2 fold change” read 0.08 (Serine/threonine-protein kinase HSL1 (HSL1, Candida albicans, UniProt Q5AG71); kinase binding, MIB/MS competition; Candida albicans lysate; 10 µM; baseline: DMSO, negative = stronger binding).
`C=C(C)C1CC=C(CN2CCN(Cc3ccccc3)CC2)CC1` (stereo not drawn) has an inhibition of 2.8% (Trypanosoma cruzi; reporter translation, Renilla luciferase mRNA translation; cell-free extract; 40 µM; baseline: DMSO).
`Nc1ncnc2c1nc(N/N=C/c1ccc([N+](=O)[O-])cc1)n2[C@@H]1O[C@H](CO)[C@@H](O)[C@H]1O` has a luminescence of 76900 a.u. (B4GALT1 (Homo sapiens, UniProt P15291); enzyme activity, inhibitor, UDP-Glo; 100 µM; lower means stronger inhibition).
`CCN(CCO)CCCC(C)Nc1ccnc2cc(Cl)ccc12` (stereo not drawn) gave an inactivation V1/2 of -88.3 ± 4.6 mV (SCN5A (Homo sapiens, UniProt Q14524); sodium current; 100 µM).
For `CC[C@@H](C)[C@@H](NC(=O)[C@@H](Cc1ccc(O)cc1)NC(=O)[C@H]1CCCN1C(=O)[C@@H](CCCNC(=N)N)NC(=O)[C@H](N)Cc1c[nH]cn1)C(=O)N[C@H](C)C(=O)N[C@H](Cc1c[nH]cn1)C(=O)N[C@H](CCCNC(=N)N)C(=O)N[C@@H](C(=O)N[C@H](Cc1ccc(O)cc1)C(=O)N[C@H](CO)C(=O)N[C@H](Cc1ccccc1)C(N)=O)C(C)C`, “surface TFRC expression” read 0.903 (Transferrin receptor protein 1 (Tfrc, Mus musculus, UniProt Q62351); flow cytometry; RAW264.7; 2 h, pH 6, replicate 1, unit not given; baseline: 0 h).
`CC(=O)N[C@H](C(=O)N[C@@H](CC(=O)O)C(=O)N1CCC[C@H]1C(=O)N1CCC[C@H]1C(=O)N[C@@H](CC(C)C)C(=O)N[C@@H](Cc1c[nH]cn1)C(=O)N[C@@H](CO)C(=O)N[C@H](C(=O)N[C@@H](C)C(N)=O)[C@@H](C)OP(=O)(O)O)C(C)C` gave a binding enthalpy of -14.5 ± 0.11 kcal/mol (PLK1 (Homo sapiens, UniProt P53350); polo-box domain binding, isothermal titration calorimetry; concentration not given, 25 °C).
With `C#CCN1C(=O)C(O)(CC(=O)c2ccc(CC)cc2)c2ccccc21` (stereo not drawn) the labelling was 11.6% (UCHL1; covalent, intact protein LC-MS; 12.5 µM).
For `Nc1ncnc2c1ncn2[C@@H]1O[C@H](COP(=O)(O)OP(=O)(O)OP(=O)(O)O)[C@@H](O)[C@H]1O`, the Hill slope was 1.66 (P2X purinoceptor 1 (P2RX1, Homo sapiens, UniProt P51575, K136E); ion current, agonist, two-electrode voltage clamp; Xenopus oocytes; concentration-response curve).
For `O=C(CCl)Cc1c(F)cccc1F`, the labelling was 4.74% (UCHL1; covalent, intact protein LC-MS; 12.5 µM).
For `Nc1nc2c(ncn2[C@@H]2O[C@H](COP(=O)(O)OP(=O)(O)OP(=O)(O)O)[C@@H](O)[C@H]2O)c(=O)[nH]1`, the Kd was 40.3 nM (T1, RNA aptamer A7C, 5'-triphosphate, 2',3'-cyclic phosphate; ITC).
Under “log fold enrichment”, `COCCC(=O)N1CCC(Oc2ccccc2)C1` (stereo not drawn) is recorded as 0.279 (Leucine-rich repeat serine/threonine-protein kinase 2, WD40 domain (LRRK2, Homo sapiens, UniProt Q5S007); binding, affinity selection mass spectrometry; baseline: other proteins in batch).
With `O=C(O)C1=CCNCC1` the current density was 39.1 pA/pF and 115 pA/pF and 54.9 pA/pF and 60.7 pA/pF and 112 pA/pF (BEST1; whole-cell patch clamp; HEK293 transiently expressing channel; concentration not given, membrane potential 80 mV).
`Nc1ncnc2c1ncn2[C@@H]1O[C@H](COP(=O)(O)CP(=O)(O)OP(=O)(O)O)[C@@H](O)[C@H]1O` gave a specific binding of 3410 CCPM and 2050 CCPM and 2970 CCPM and 3070 CCPM and 1130 CCPM (P2X purinoceptor 1 (P2RX1, Homo sapiens, UniProt P51575); saturation binding; HEK293; 13 nM).
With `CC(=O)N1CCC[C@H]1C(=O)NCCNC(=O)CCn1c(=O)[nH]c(=O)c2ccccc21` the ligand efficiency was 0.21 (TNKS (Homo sapiens, UniProt O95271); enzyme activity, inhibitor).
For `CN1CCN(c2cc(-c3ccncc3)c(-c3ccc4ccccc4c3)nn2)CC1`, the activation was -1.7% (MC4R (Homo sapiens, UniProt P32245); agonist, FLIPR; 12.5 µM).
Under “probe labeling increase”, `N#Cc1ccc(S(=O)(=O)n2nc(SCc3ccc(Cl)cc3)nc2N)cc1` is recorded as 2.2 fold (Lysophospholipase-like protein 1 (Mus musculus, UniProt Q3UFF7); enzyme activity, activator, gel-based ABPP; purified protein; concentration not given, added: FP-rhodamine; baseline: DMSO).
`C=CCNC(=O)C(C#N)=Cc1cccc(O)c1` has a labelling of 9.18% (UCHL1; covalent, intact protein LC-MS; 12.5 µM).
`O=C(O)c1cccc(C(O)P(=O)(O)O)n1` (stereo not drawn) has a dissociative half-life of 18 ± 3.3 min (Beta-lactamase L1 (Stenotrophomonas maltophilia, UniProt P52700); binding, inhibitor, nitrocefin progress curves).
For `C=CC(=O)N1CCC[C@@H](n2nc(-c3ccc(Oc4ccccc4)cc3)c3c(N)ncnc32)C1`, the remaining activity was 110% (PDGFRB (Homo sapiens, UniProt P09619); 0.1 µM).
`O=c1nc(SCc2cc(F)cc(C(F)(F)F)c2)nc(SCc2ccc3sccc3c2)[nH]1` gave a decatenated DNA of 0.76% (TOP2B; decatenation; 15.6 µM, replicate 1).
`C=CC(=O)N1CCC(C(=O)NCC(=O)N2CCN(c3nc(-c4cnc(N)nc4C(F)F)nc(N4CCOCC4)n3)CC2)CC1` gave a remaining binding of 95% (CDK13 (Homo sapiens, UniProt Q14004); KINOMEscan; 1 µM).
The selectivity ratio of `Cc1cc(Oc2ncccc2CN2CCN(c3c(C)cccc3C)CC2)ccc1-c1c(C)c(=O)[nH]c(=O)n1C` is reported as 5 (ADRA2C; binding, radioligand binding; added: [3H]rauwolscine; baseline: Ki alpha2B over Ki alpha2C).
For `COC(=O)c1cn(C)c2ccc(-c3cccnc3)cc12`, the activation was 1.01 fold (Nuclear receptor subfamily 1 group I member 3 (Homo sapiens, UniProt Q14994); reporter gene, Gal4 hybrid reporter; 10 µM; baseline: vehicle).
The labelling of `CN1C(=C(C#N)C(=O)CCl)Sc2ccccc21` is reported as 12.8% (UCHL1; covalent, intact protein LC-MS; 12.5 µM).
For `CCCCCCCC/C=C\CCCCCCCC(=O)O`, the Km was 190 ± 59.2 µM (uncharacterized protein (Marinitoga piezophila, UniProt H2J7C1); substrate, GC-FID; pH 6.0, 20 °C, 5% ethanol, 50 mM NaCl).
`CC(=O)Oc1ccccc1C(=O)O` gave an inhibition of 0% (Voltage-dependent P/Q-type calcium channel subunit alpha-1A; ion current, antagonist; HEK293; 30 µM).
`CC1CCCCN1c1nc(Cl)nc(N2CCCCC2C)n1` (stereo not drawn) gave a labelling of 7.11% (UCHL1; covalent, intact protein LC-MS; 12.5 µM).
With `C=CC(=O)N1CCC(COCC(=O)N2CCN(c3nc(-c4cnc(N)nc4C(F)F)nc(N4CCOC[C@@H]4C)n3)CC2)CC1` the remaining binding was 0% (PIK3CA (Homo sapiens, UniProt P42336, C420R); KINOMEscan; 1 µM).
`O=c1nc(SCc2cc(F)cc(C(F)(F)F)c2)nc(SCc2ccc3nc(Cl)ccc3c2)[nH]1` gave a decatenated DNA of 0.61% (TOP2B; decatenation; 31.25 µM, replicate 1).
`C[C@H](NCc1ccc(OCc2ccccc2F)cc1)C(N)=O` has an inhibition of 77% (Voltage-dependent P/Q-type calcium channel subunit alpha-1A; ion current, antagonist; HEK293; 30 µM).
`CCOC(=O)c1c(NC(=O)CNC(C)C)sc2c1CCCCC2` gave a luminescence of 65.3 ± 0.7% (Glycogen synthase kinase-3 beta, with Nav1.6 (GSK3B, Homo sapiens, UniProt P49841); protein assembly, split-luciferase complementation; HEK293; 50 µM; baseline: DMSO).
`O=C(O)c1ccc(O)cc1` gave a current density of -23.5 pA/pF and -12 pA/pF and -13.9 pA/pF and -20.4 pA/pF and -17.7 pA/pF and -25 pA/pF and -23.8 pA/pF (BEST1; whole-cell patch clamp; HEK293 transiently expressing channel; concentration not given, membrane potential -60 mV).
The Vmax of `Oc1ccc([C@@H]2c3c(O)cc(O)cc3[C@@H]3c4c(cc(O)c5c4[C@@H]2[C@H](c2ccc(O)cc2)[C@H]5c2cc(O)cc4c2[C@@H](c2cc(O)cc(O)c2)[C@H](c2ccc(O)cc2)O4)O[C@H]3c2ccc(O)cc2)cc1` is reported as 687 ± 221 µmol/min (Alpha-amylase 1A (AMY1A, Homo sapiens, UniProt P0DUB6); enzyme activity, inhibitor; salivary; concentration not given).
The selectivity ratio of `Cc1cc(Oc2ncccc2CN2CCN(c3ccccc3C(F)(F)F)CC2)ccc1-c1c(C)c(=O)[nH]c(=O)n1C` is reported as 10 (ADRA2C; binding, radioligand binding; added: [3H]rauwolscine; baseline: Ki alpha2A over Ki alpha2C).
`Nc1nc2c(ncn2[C@@H]2O[C@H](COP(=O)(O)O)[C@@H](O)[C@H]2O)c(=O)[nH]1` has a reaction rate of -2.23 s⁻¹ and 0.102 s⁻¹ and -0.896 s⁻¹ (GUK1 (Homo sapiens, UniProt Q16774, S37A); enzyme activity, NADH-coupled; 15.62 µM).
Under “probe labeling fluorescence”, `C#CCCC1(CC[C@H](NC(=O)NCCCCCCNC(=O)NCCN)C(N)=O)N=N1` is recorded as 1780 a.u. (FKBP1A (Homo sapiens, UniProt P62942); photoaffinity labeling, in-gel fluorescence, refers to: Alexa Fluor 647 click label; 40 µM, UV irradiation 365 nm; higher = more labeling).
The labelling of `N#CC(=Cc1cccc2ccccc12)C(=O)NC1CC1` is reported as 10.8% (UCHL1; covalent, intact protein LC-MS; 12.5 µM).
For `Cc1cc2nc3c(=O)[nH]c(=O)nc-3n(C[C@H](O)[C@H](O)[C@H](O)COP(=O)(O)OP(=O)(O)OC[C@H]3O[C@@H](n4cnc5c(N)ncnc54)[C@H](O)[C@@H]3O)c2cc1C`, “enzyme bound with compound” read 49.8% and 38% and 36% and 40.1% and 47% and 58% and 46% (Acyl-coenzyme A oxidase acox-1.1 (acox-1.1, Caenorhabditis elegans, UniProt O62140); UV spectroscopy).

For quick reference, copied from above:
The selectivity ratio of `Cc1cc(Oc2ncccc2CN2CCN(c3c(C)cccc3C)CC2)ccc1-c1c(C)c(=O)[nH]c(=O)n1C` is reported as 5 (ADRA2C; binding, radioligand binding; added: [3H]rauwolscine; baseline: Ki alpha2B over Ki alpha2C).
For `COC(=O)c1cn(C)c2ccc(-c3cccnc3)cc12`, the activation was 1.01 fold (Nuclear receptor subfamily 1 group I member 3 (Homo sapiens, UniProt Q14994); reporter gene, Gal4 hybrid reporter; 10 µM; baseline: vehicle).
The labelling of `CN1C(=C(C#N)C(=O)CCl)Sc2ccccc21` is reported as 12.8% (UCHL1; covalent, intact protein LC-MS; 12.5 µM).
For `CCCCCCCC/C=C\CCCCCCCC(=O)O`, the Km was 190 ± 59.2 µM (uncharacterized protein (Marinitoga piezophila, UniProt H2J7C1); substrate, GC-FID; pH 6.0, 20 °C, 5% ethanol, 50 mM NaCl).
